Published values gathered from unrelated publications.
A part holds a random share of what one study measured. Positions count from the first letter of the parent shown.
Sequence of UniProt P48730 (whole entry, looked up): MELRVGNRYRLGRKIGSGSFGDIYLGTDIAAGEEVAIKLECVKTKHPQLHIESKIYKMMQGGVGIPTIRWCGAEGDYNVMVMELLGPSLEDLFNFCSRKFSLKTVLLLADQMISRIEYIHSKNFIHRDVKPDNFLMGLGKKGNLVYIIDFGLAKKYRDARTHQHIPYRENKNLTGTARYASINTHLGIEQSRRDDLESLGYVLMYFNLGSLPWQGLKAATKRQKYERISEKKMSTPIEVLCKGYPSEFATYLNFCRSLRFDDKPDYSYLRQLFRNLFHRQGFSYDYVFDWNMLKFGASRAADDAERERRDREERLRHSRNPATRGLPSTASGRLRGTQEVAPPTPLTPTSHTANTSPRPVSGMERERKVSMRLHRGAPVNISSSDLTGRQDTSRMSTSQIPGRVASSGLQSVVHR
Sequence of UniProt Q9UF33 (whole entry, looked up): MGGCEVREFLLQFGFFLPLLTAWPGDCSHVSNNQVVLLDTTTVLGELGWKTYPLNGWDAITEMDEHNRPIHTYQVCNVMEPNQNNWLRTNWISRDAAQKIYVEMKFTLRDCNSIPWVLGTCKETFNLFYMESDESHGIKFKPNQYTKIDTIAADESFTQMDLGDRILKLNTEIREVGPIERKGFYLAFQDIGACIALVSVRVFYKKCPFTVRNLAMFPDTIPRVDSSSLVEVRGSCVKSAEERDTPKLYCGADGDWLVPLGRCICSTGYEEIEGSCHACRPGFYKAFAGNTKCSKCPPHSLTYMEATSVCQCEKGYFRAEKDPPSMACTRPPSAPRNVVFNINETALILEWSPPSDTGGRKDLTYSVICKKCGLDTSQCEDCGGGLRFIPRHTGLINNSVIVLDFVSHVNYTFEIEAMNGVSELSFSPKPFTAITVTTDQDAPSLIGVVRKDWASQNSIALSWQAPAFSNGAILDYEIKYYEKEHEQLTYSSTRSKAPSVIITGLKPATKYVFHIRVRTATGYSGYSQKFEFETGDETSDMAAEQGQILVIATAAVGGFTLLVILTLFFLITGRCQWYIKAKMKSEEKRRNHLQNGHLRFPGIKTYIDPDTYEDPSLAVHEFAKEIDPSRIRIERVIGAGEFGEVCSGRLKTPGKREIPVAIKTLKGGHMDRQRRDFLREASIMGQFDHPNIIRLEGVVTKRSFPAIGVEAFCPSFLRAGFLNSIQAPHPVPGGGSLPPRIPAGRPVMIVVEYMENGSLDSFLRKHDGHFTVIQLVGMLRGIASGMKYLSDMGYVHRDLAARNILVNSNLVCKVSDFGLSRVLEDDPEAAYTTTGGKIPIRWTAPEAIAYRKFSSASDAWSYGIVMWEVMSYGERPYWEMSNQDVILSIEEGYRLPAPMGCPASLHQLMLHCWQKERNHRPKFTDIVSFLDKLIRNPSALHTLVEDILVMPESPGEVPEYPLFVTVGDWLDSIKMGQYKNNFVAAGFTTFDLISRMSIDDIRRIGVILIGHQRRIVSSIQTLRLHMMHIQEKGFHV
Sequence of UniProt Q04759 (whole entry, looked up): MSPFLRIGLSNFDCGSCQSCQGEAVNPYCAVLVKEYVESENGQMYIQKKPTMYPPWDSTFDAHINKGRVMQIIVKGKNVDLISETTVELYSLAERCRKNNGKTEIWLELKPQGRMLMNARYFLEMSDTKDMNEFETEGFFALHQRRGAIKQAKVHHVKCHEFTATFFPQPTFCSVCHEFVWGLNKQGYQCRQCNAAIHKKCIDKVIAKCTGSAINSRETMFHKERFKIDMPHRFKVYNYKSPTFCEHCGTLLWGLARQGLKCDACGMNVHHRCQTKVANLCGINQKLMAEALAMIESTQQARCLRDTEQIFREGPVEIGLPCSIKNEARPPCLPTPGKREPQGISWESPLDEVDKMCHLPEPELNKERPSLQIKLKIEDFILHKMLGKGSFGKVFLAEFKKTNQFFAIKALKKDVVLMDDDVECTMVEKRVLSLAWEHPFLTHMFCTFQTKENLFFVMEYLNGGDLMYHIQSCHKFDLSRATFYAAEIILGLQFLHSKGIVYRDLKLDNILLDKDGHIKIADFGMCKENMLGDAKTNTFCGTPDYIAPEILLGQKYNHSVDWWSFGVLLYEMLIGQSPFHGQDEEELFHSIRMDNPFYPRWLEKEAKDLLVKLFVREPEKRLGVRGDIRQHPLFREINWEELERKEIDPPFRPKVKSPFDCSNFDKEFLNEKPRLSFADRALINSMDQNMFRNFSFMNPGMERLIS
Sequence of UniProt P08069 (whole entry, looked up): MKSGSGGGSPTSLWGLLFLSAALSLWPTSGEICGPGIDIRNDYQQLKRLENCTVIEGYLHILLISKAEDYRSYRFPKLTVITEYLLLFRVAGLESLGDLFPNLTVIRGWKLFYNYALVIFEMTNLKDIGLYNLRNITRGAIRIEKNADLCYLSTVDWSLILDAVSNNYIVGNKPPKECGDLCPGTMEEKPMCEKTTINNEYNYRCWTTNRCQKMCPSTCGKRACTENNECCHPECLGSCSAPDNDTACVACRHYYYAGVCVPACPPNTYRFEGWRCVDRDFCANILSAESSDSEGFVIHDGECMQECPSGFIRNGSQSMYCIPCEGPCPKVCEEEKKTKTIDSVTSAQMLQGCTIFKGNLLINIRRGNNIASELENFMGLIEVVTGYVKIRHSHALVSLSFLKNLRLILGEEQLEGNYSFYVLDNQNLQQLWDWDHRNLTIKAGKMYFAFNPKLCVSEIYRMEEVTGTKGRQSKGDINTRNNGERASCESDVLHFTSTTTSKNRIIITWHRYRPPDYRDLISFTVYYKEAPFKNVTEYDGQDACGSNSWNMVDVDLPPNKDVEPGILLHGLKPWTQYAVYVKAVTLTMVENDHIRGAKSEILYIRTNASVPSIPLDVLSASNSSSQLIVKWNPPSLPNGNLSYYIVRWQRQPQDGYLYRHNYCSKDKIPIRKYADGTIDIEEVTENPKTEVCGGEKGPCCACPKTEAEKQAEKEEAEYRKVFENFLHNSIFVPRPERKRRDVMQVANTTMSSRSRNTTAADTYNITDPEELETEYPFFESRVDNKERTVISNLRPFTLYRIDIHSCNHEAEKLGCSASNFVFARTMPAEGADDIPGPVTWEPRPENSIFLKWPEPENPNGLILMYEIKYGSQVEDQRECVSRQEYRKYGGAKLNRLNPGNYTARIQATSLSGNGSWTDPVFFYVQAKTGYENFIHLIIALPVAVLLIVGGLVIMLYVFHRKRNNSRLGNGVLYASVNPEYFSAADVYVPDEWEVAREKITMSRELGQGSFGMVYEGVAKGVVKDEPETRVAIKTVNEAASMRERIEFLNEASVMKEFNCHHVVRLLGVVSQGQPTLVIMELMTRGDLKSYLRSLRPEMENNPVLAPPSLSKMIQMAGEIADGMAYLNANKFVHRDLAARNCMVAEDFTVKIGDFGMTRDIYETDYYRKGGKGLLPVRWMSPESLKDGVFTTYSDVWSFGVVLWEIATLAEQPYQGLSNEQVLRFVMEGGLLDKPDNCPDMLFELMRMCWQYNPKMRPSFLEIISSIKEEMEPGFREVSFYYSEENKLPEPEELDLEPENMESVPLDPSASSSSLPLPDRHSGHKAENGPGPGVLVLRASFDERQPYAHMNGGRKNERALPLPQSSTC
Sequence of UniProt O15146 (whole entry, looked up): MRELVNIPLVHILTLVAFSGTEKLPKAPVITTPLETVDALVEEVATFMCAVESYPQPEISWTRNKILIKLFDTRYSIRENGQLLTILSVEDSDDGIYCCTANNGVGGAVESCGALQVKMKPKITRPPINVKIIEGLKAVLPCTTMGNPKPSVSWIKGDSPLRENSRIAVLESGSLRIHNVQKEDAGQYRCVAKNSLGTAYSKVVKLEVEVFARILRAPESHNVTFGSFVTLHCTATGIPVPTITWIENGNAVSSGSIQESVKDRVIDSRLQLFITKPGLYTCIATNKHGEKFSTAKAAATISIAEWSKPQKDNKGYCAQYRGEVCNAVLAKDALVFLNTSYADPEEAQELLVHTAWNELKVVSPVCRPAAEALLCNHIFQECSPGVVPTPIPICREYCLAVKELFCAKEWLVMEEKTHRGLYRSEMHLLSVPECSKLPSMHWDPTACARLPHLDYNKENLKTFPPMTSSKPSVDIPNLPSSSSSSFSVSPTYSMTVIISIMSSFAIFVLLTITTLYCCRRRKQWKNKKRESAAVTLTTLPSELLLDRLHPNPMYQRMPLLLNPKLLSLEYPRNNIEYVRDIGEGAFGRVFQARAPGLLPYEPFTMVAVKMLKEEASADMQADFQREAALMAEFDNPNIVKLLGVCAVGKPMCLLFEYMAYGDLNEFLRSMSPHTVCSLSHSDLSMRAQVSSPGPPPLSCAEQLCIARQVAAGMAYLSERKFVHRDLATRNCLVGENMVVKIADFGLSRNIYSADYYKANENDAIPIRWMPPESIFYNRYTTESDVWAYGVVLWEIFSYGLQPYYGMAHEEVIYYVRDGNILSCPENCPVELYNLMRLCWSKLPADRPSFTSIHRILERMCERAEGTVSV

Study 1
Target: CCND1, cyclin fold, Cln2 fusion (human)
Technique: yeast growth competition, sequencing
Medium: yeast
Setting: weak parent motif
Reference: not given
Direction: higher = stronger binding
Quantity: normalised enrichment score
Starting sequence: BRCA2 docking peptide (human); PSIKRNLLNEFDR; partner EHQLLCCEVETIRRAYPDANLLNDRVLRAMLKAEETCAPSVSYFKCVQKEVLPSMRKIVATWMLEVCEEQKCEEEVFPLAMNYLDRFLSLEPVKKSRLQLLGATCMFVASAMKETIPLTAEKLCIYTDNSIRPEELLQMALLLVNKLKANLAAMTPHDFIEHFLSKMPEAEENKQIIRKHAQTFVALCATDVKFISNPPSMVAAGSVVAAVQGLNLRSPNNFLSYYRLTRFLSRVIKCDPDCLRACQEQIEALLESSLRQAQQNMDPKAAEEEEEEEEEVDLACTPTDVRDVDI
D12H: 0.0585
E10K: -0.283
P1K: 1.04
L8Y: 0.25
F11I: 0.729
D12A: 1.07
P1A: 0.381
R5C: 0.443

Study 2
Target: Transcription factor SOX-2, HMG box (SOX2, Homo sapiens, UniProt P48431, residues 37-118)
Sequence of UniProt P48431 (37-118, looked up): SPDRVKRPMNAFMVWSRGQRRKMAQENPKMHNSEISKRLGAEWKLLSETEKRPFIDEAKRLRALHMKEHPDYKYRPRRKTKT
Technique: protein-binding microarray
Form: hairpin DNA
Medium: in vitro
Tested at: not given
Setting: whole hairpin DNA, median over replicate spots
Reference: not given
Direction: higher = stronger binding
Quantity: median fluorescence
All sequences stand within: GCAGGCCC … GGGCCTGCACACTCTTTCCCTACACGAC
ACCATGGGCCTCCTGGCCCATGGT (5mC at 10): 2440 a.u.
ACAAGGGGCCTCCTGGCCCCTTGT: 2310 a.u.
ACACAGGGCCTCCTGGCCCTGTGT (5mC at 12): 2470 a.u.
ACAATCGGCCTCCTGGCCGATTGT (5mC at 14): 2770 a.u.
CCAATGGGCCTCCTGGCCCATTGG: 2520 a.u.
ACACGGGGCCTCCTGGCCCCGTGT (5mC at 12 28): 2320 a.u.
ACCGTGGGCCTCCTGGCCCACGGT (5mC at 11): 2430 a.u.
ACACTGGGCCTCCTGGCCCAGTGT (5mC at 12): 2380 a.u.

Study 3
Target: Alpha-2C adrenergic receptor (ADRA2C, Homo sapiens, UniProt P18825)
Sequence of UniProt P18825 (whole entry, looked up): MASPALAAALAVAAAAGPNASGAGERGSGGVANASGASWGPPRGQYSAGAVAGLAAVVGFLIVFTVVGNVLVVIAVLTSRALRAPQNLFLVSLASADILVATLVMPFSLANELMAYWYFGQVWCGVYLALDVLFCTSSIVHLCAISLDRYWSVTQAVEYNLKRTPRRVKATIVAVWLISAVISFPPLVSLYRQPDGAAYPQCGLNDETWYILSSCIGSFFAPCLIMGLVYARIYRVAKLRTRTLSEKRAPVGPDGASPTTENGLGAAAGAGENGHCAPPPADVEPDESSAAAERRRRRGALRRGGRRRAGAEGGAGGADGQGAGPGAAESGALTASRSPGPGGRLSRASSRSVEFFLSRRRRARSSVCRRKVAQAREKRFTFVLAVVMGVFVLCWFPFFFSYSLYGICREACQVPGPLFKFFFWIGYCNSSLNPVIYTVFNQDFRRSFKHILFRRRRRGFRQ
Observed: binding
Technique: radioligand binding
Tested at: 10 µM
Quantity: inhibition
CS(=O)(=O)NCC[C@H](NC(=O)c1cncc2c1cnn2-c1ccc(F)cc1)c1ccnc(S(C)(=O)=O)c1: -2.08%
COCCc1ccc(-c2c(C)nc3c(N4CCOCC4)ccnn23)cn1: 41.3%
O=C1CCc2cc(Nc3cc(OC4CCOCC4)c([N+](=O)[O-])cc3Cl)ccc2N1: -0.13%
CN(C)C(=O)Cn1cc(-c2nc([C@@](C)(c3ccc(-c4cnc(N)nc4)cc3)C3CC3)no2)cn1: -10.5%
O=C(Nc1ccc(-n2nc(-c3cccnc3)cc2C(F)(F)F)cn1)c1ccc(-c2ccccc2)c(F)c1: 6.33%
COc1cccc(CNC(=O)c2nc3scc(COCc4ccc(C(=O)O)cc4)c3c(=O)[nH]2)c1: 4.23%
O=C([C@H]1C[C@H](O)CN1c1ccc(Cl)cc1)N1CC2COCC(C1)N2Cc1ccc(Cl)cc1: 14.4%
Nc1c(C(=O)NCc2ccc(C(=O)NCCCC3CCCCC3)cc2)cnn1-c1ccccc1: 18.1%
Cc1nccc(COC(=O)N2C[C@@H]3[C@@H](CNC(=O)c4ccc5[nH]nnc5c4)[C@@H]3C2)n1: 3.82%
COCc1nc2cnc3cc(-c4c(C)noc4C)c(OC[C@H]4CCNC4)cc3c2n1[C@H](C)c1ccccc1: 15.3%

Study 4
SMILES: O=c1cc(N2CCOCC2)oc2c(-c3ccccc3)cccc12
Observed: enzyme activity
Action: inhibitor
Tested at: 0.5 µM
Reference: control
Quantity: remaining activity
PAK6 (Homo sapiens, UniProt Q9NQU5): 115%
EPHA6 (Homo sapiens, UniProt Q9UF33): 87%
SGK2 (Homo sapiens, UniProt Q9HBY8): 97%
CSNK1D (Homo sapiens, UniProt P48730): 100%
MAP3K20 (Homo sapiens, UniProt Q9NYL2): 94.2%
Cyclin-dependent kinase 2, with cyclin E (CDK2, Homo sapiens, UniProt P24941): 93%
MUSK (Homo sapiens, UniProt O15146): 102%
CLK2 (Homo sapiens, UniProt P49760): 100%
IGF1R (Homo sapiens, UniProt P08069): 102%
CSNK1E (Homo sapiens, UniProt P49674): 103%
PRKCQ (Homo sapiens, UniProt Q04759): 112%
